Results collected from several papers.
Parts stem from different laboratories: compare values within a part only.

Set 1
Target: Ras GTPase-activating protein-binding protein 1, full length (G3BP1, Homo sapiens, UniProt Q13283)
Sequence of UniProt Q13283 (whole entry, looked up): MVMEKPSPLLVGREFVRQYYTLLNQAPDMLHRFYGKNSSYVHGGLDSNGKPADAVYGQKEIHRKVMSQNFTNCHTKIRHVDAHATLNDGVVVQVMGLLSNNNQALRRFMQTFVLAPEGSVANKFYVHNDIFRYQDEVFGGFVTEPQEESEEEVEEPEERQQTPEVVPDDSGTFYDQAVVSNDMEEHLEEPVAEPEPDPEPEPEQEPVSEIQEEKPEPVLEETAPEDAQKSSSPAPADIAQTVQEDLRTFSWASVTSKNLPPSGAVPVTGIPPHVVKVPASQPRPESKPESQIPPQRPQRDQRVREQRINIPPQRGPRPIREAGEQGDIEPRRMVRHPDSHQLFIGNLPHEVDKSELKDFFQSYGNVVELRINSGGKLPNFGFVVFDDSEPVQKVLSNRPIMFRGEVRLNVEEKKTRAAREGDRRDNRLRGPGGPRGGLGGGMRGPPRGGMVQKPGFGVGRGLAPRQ
Method: RNA Bind-n-Seq
Form: RNA
Medium: in vitro
Concentration: 200 nM
Notes: whole 134-nt RNA, ends assumed
With: 150 mM LiCl
Relative to: input library
Reading: higher = stronger binding
All molecules: 7-deaza-guanosine replaces G
Shared flanks, not repeated: GGGAGUUCUACAGUCCGACGAUC … UGGAAUUCUCGGGUGUCAAGG
With `UAGUAACAGGGGUGAAGAUGCCUUUUGUGAUCCUGAAGAUGAAUGGGAACCCGACAUUACAGAUGCACCAGUUUCUUCACUUUCUAGAAG` the log2 enrichment was -2.69.
`CACAGACAACACGCACCCACACAGACACAGAGGGAAGGGGUUUGGAUGGGGACAGGGUGCACAGCAGGGCGGGGUAGGACCCCAGCCCCU` has a log2 enrichment of -1.41.
For `UCCUGUGCUACACAUCGUAUGUACCGAAUCGGGGAAAAAAGGAAAAAAGGGAAAAAAGGGAAAGUAUUAUGUUACGCCGUUCGGAUCUGC`, the log2 enrichment was 0.221.
The log2 enrichment of `UGUACAAACACUUUCCCAUCCCCCUCAUUAACCGGCUGGAGAAGCACUAUCUGGAUAUCAACACGGUGCUGGAGAAAUGGCAGAAGAGCA` is reported as 0.311.
`UCCUGUGCUACACAUCGUAUGUACCGAAUCGGGUUUUUGGGUUUUUUUGGGAAAAAGGGAAAGUAUUAUGUUACGCCGUUCGGAUCUGCA` gave a log2 enrichment of 0.138.
`ACCAUGCAGGUGCGCAUCUUUGGGAAGUGGGGCAAGGGGGGGAUAGGGAGGGGGGUAACACUUUGGGAACAGGUGGUCCCAGGUCGUUUC` gave a log2 enrichment of 0.268.
With `UUCCUCAAGUCCUGUGCUACACAUCGUAUGUACCGAAUCGGUGGUGGUGGGAAAGUAUUAUGUUACGCCGUUCGGAUCUGCACUUCCAGC` the log2 enrichment was 0.8.
`AGUCCUGUGCUACACAUCGUAUGUACCGAAUCGGGGUUUUUGGGGAGGGGUUUGGGGAAAGUAUUAUGUUACGCCGUUCGGAUCUGCACU` has a log2 enrichment of -0.179.

Set 2
Target: RING finger protein unkempt homolog, zinc fingers 1-6, SBP tag (UNK, Homo sapiens, UniProt Q9C0B0, residues 30-357)
Sequence of UniProt Q9C0B0 (30-357, looked up): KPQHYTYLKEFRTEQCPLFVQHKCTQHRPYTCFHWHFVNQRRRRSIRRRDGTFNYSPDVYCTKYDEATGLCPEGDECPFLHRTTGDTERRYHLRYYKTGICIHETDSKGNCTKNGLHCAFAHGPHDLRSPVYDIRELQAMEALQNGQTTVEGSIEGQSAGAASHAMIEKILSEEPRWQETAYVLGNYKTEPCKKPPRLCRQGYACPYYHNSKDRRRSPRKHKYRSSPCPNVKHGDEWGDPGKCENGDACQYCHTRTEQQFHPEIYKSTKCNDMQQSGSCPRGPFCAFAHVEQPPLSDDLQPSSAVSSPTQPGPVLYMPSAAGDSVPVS
Method: RNA Bind-n-Seq
Form: RNA
Medium: in vitro
Concentration: 100 nM
Notes: RNA with constant flanks, vertebrate orthologous sites, ends assumed
Relative to: input RNA pool
Reading: higher = stronger binding
Shared flanks, not repeated: GGGAGUUCUACAGUCCGACGAUC … CAACAGAGGAUUGAGCAUCA
With `GGUGUUUUCAAACAAUAGGAAGCUUUUAUUGUUUCACAGUUUAGUGUCUGGUUUCUAUGUGGAAGACUAAACUCAUGCUUAUAGCUAAAGGGGUGUUUGCCAACUAAAUUUAAGAUGCAG` the bound/input enrichment was 0.596 ratio.
With `CUGCUUGAGGGUACAGGGGAGGGAGGGGUAGGACAGUACGGAAUCUGGGGUGAUGUGGGUAGAUGGGGGAACAGUUCCAAGUGGGCUUUUUGAUGCUACCCUCUGGAGGUGUUUGGGGUG` the bound/input enrichment was 0.463 ratio.
The bound/input enrichment of `CAGCUGAUUCACUCAUCGGGAGAGCUGCACAUAUAGCUGUUCUUGAUUCCGAGAUAUUUUUAGAGAAGUUUUUCCUGGUUGCUGCCCUCAAAUAUUUCCAGUAGAACCGAAGCAUCAUUA` is reported as 1.25 ratio.
The bound/input enrichment of `UCCAGCCUCAACUGACUGUUUCACAGCAUUCCUUACACAGCUAUUUAACAAGUACAAGUGGAGUUAACUUUCAGGAUACAUCUAGGCACUCAGCAUUAUCCUGCAGUCCAGUUGGAGAUG` is reported as 0.246 ratio.
With `GUCCUUUCGCACGGUUCCCGGCCAGGGUCGAGGACCGGAUGUUUCACUGAGGACCCGCGUUUCAAACAGUUUUUUAAAUUGUUGUACAGGAAGAGAUGUGACGAAAACAGCAUCUCGAAG` the bound/input enrichment was 0.203 ratio.
`GUGGGGAUGAGGGUGGGAUGGGAAAGGGAUGUAUGGAUGUUACUGGCAUUUUUAAGUGUUUUAGAGUUUUUUGGGGUUUGGGGUGGUUUUUUUCCUUGUUUUCCUUUUUUCCUUUUAAUU` gave a bound/input enrichment of 1.95 ratio.
`UUACAGUCAUUGAUGGACUCUAUUUUUUUAUUAUUACUUGGACCUUGGUCGUUUUUAUACUAGCAAAACGUCUUGUUUUAAUUUGUGUUUUUUGGGGGGGAGGGAGUGAACUUGCUGAUU` has a bound/input enrichment of 2.02 ratio.
For `CAUUGUACUCUGCUGUAUAAUAAACAAUCUUAGACAUUUAUCAAUUGUUGAUACAAAUGUUAGUCCCUAACCACUUUUUAUAUGUUUUAAAUUUUUGAAAUUCAAGUGUACCUGCCAUAA`, the bound/input enrichment was 2.64 ratio.

Set 3
Target: Histone acetyltransferase KAT6A, winged helix 2, GST fusion (KAT6A, Homo sapiens, UniProt Q92794, residues 85-181)
Method: protein binding microarray
Form: double-stranded DNA, one strand shown
Medium: in vitro
Concentration: not given
Notes: 8-mer, flanks averaged, mean of 2 arrays, mostly near background
Relative to: not given
Reading: higher = stronger binding
Construct (chain): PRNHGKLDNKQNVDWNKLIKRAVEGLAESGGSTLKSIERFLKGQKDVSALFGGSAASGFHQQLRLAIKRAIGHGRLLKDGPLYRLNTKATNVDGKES
The E-score of `CCCCGGGA` is reported as 0.0488.
For `AAGGCCGC`, the E-score was 0.177.
With `GACTAAAA` the E-score was 0.00396.
For `ACATATAT`, the E-score was -0.0849.
The E-score of `ATCCTCGA` is reported as 0.00521.
For `AGAAAAAG`, the E-score was 0.11.
`AAAAGCAT` has an E-score of 0.0515.
`GGGCCCCA` gave an E-score of 0.108.
`ATCCTACC` gave an E-score of -0.0978.
`CCATACTC` has an E-score of -0.0296.
`CAAGATCG` gave an E-score of 0.129.
`CCGCTAGG` has an E-score of 0.141.
For `ACGTTACT`, the E-score was -0.194.
For `GAAACCTC`, the E-score was -0.115.
`AGCGGTGA` has an E-score of -0.0439.
`GCGTCCTA` has an E-score of 0.0443.
With `CAACGGAG` the E-score was 0.103.
With `TCCCAGAA` the E-score was 0.0397.
`GATGTAGA` has an E-score of -0.158.
`GCGGTTCC` has an E-score of 0.102.

Set 4
Target: Prothrombin, mature alpha-thrombin (F2, Homo sapiens, UniProt P00734)
Method: aptamer microarray, sandwich
Form: DNA with 2'F-ANA
Medium: in vitro
Concentration: 200 nM
Notes: whole 15-mer aptamer, many near background
With: Cy3 exosite-II aptamer, 400 nM
Reading: higher = stronger binding
Sequence: GGTTGGTGTGGTTGG
`2'F-ANA at 2 3 6 7 8 9 11 13 14 15`: “mean fluorescence intensity” 322 a.u.
`2'F-ANA at 2 5 6 7 10 11 12 13 14 15`: “mean fluorescence intensity” 54.7 a.u.
For `2'F-ANA at 2 4 6 7 9 10 11`, “mean fluorescence intensity” read 78.5 a.u.
`2'F-ANA at 1 7 10 11 12 13 15` — result for “mean fluorescence intensity”: 112 a.u.
Under “mean fluorescence intensity”, `2'F-ANA at 2 4 5 8 9 10 11 13` is recorded as 53 a.u.
`2'F-ANA at 1 2 4 9 10 11`: “mean fluorescence intensity” 49.3 a.u.
`2'F-ANA at 1 2 3 6 10 13 14 15`: “mean fluorescence intensity” 55.2 a.u.
Under “mean fluorescence intensity”, `2'F-ANA at 1 4 5 6 7 8 12 13 15` is recorded as 75.9 a.u.
`2'F-ANA at 2 3 5 7 8 9 11 13 15`: “mean fluorescence intensity” 77.9 a.u.
For `2'F-ANA at 2 3 4 5 8 10 11 13 14 15`, “mean fluorescence intensity” read 68.1 a.u.
`2'F-ANA at 3 4 6 7 10 13 15` — result for “mean fluorescence intensity”: 223 a.u.
For `2'F-ANA at 3 5 8 9 10 14 15`, “mean fluorescence intensity” read 50.4 a.u.
`2'F-ANA at 2 4 6 7 8 11 14`: “mean fluorescence intensity” 94.1 a.u.
`2'F-ANA at 2 4 5 7 9 11 13 15`: “mean fluorescence intensity” 52.9 a.u.
Under “mean fluorescence intensity”, `2'F-ANA at 3 5 8 12 13` is recorded as 275 a.u.
For `2'F-ANA at 2 3 6 7 8 14 15`, “mean fluorescence intensity” read 395 a.u.
`2'F-ANA at 1 3 4 5 7 8 9 13 15`: “mean fluorescence intensity” 50.3 a.u.
Under “mean fluorescence intensity”, `2'F-ANA at 1 2 6 7 9 11 12` is recorded as 206 a.u.
`2'F-ANA at 1 4 5 6 7 13 14`: “mean fluorescence intensity” 46.1 a.u.
`2'F-ANA at 1 3 4 6 7 11 12 14` — result for “mean fluorescence intensity”: 71.6 a.u.
`2'F-ANA at 1 2 4 5 6 8 9 10` — result for “mean fluorescence intensity”: 49.9 a.u.
`2'F-ANA at 1 4 5 6 7 9 10 11 13 15` — result for “mean fluorescence intensity”: 49.7 a.u.
`2'F-ANA at 4 5 7 9 13` — result for “mean fluorescence intensity”: 50.8 a.u.

Repeated from above (set 4):
`2'F-ANA at 1 4 5 6 7 13 14`: “mean fluorescence intensity” 46.1 a.u.
`2'F-ANA at 1 2 4 5 6 8 9 10` — result for “mean fluorescence intensity”: 49.9 a.u.
Under “mean fluorescence intensity”, `2'F-ANA at 2 4 5 8 9 10 11 13` is recorded as 53 a.u.
For `2'F-ANA at 3 5 8 9 10 14 15`, “mean fluorescence intensity” read 50.4 a.u.
